# Published values from different studies.
# Protocols differ between the studies behind these lines. Values joined by “and” are separate records of one study, mostly repeats; a detail may differ.
# Target: Serine/threonine-protein kinase Nek6 (NEK6, Homo sapiens, UniProt Q9HC98)
SMILES,test,setting,scale,endpoint,result
Nc1ncc2c(n1)-c1c([nH]c3ccc(C4=CCOCC4)cc13)CCC2,"binding, competition with immobilised ligand",1 µM,,remaining binding,88%
CCn1cc(C(=O)O)c(=O)c2c(N)c(F)c(NC3CCCCC3)cc21,kinase activity,"0.1 µM, together with: ATP at Km",,inhibition,-15.6%
Cc1cccc(-c2ccc3nc(NC(=O)C4CCOCC4)nn3c2)c1,"enzyme activity, Dundee kinase panel",10 µM,,remaining activity,83%
Cc1cccc(O[C@H]2CCC[C@@H](C(C)CNCc3ccncc3)C2)c1 (relative stereo),"enzyme activity, inhibitor",1 µM,,inhibition,2%
CN1CCN(Cc2ccc(-c3ccc(CO[C@H]4CCC[C@@H]4NC(=O)c4cc(-c5cnn(C)c5)cnc4N)cc3)cc2)CC1,"enzyme activity, inhibitor",0.1 µM,,inhibition,10%
COc1c(Cl)cccc1Nc1c(-c2ccncc2C#C[C@@]2(C)CCCN2C(=O)/C=C/CN(C)C)[nH]c2c1C(=O)NCC2,"binding, competition with immobilised ligand",3 µM,,remaining binding,92%
CNC(=O)C1CCN(c2cc(C)c(F)cc2NC(=O)c2ccc(-c3cc(O)ccc3C)c(C)c2)CC1,"binding, competition with immobilised ligand",1 µM,,remaining binding,100%
COc1ccc(NC(=O)Nc2ccc3c(c2)C(=O)N(C(C)CO)CC(C)C(CN(C)Cc2ccc4c(c2)OCO4)O3)cc1 (stereo not shown),"kinase activity, KinaseProfiler","0.03 µM, species human",reference: control,remaining activity,94%
COc1cc(Nc2nccc(-c3cnn4nc(OC)ccc34)n2)cc(C(F)(F)F)c1,"binding, competition with immobilised ligand",1 µM,,remaining binding,69%
NC(=O)C[C@H]1CCc2sc3ncnc(O[C@H]4CC[C@H](N5CCOCC5)CC4)c3c21,"enzyme activity, inhibitor",10 µM,,inhibition,-11%
CN1CC[C@@H](COc2cnc(C#N)cc2-c2ccn3nc(NC(=O)C4CC4)cc3c2)C1,"enzyme activity, inhibitor",1 µM,,inhibition,-6%
C=CC(=O)Nc1cccc(-c2cnc3[nH]cc(C(=O)NC(C)(C)C)c3n2)c1,kinase activity,0.1 µM,,inhibition,3% and 2%
CN1C[C@@H](c2c[nH]c3cc(Br)ccc23)NC[C@@H]1c1c[nH]c2cc(Br)ccc12,"enzyme activity, inhibitor",10 µM,,remaining activity,108%
C=CC(=O)N1Cc2nc(-c3cc(-c4cc(Cl)cnc4Cl)c(F)cc3F)n(-c3ccncn3)c2C1,"cell-free assay, inhibitor",1 µM,,inhibition,7.2%
Cc1ccc(C)c(-c2ccc3nc(NC(=O)C4CCCCC4)nn3c2)c1,"enzyme activity, Dundee kinase panel",10 µM,,remaining activity,81%
Nc1ncc(-c2cc(-c3cnn(CC(F)(F)F)c3)ncc2F)nc1C(=O)NC1CNCC(F)C1 (stereo not shown),enzyme activity,1 µM,reference: DMSO control,remaining activity,102%
CCN1CCN(Cc2ccc(C(=O)Nc3ccc(C)c(NCc4cnc5[nH]ccc5c4OC)c3)cc2C(F)(F)F)CC1,"binding, competition with immobilised ligand",1 µM,,remaining binding,95%
Cc1ccc(-c2c(/C=C(\C#N)C(=O)NC(C)C)n(CCCO)c3ncnc(N)c23)cc1,"cell-free assay, competition with immobilised ligand",1 µM,,remaining binding,82%
CNC1C[S+]2CC[S+]3CC[S+](C1)[Ru-4]321([N]=C=S)[n]2c3ccc(OC)cc3c3c4c(c5cc(F)c[n+]1c5c32)C(=O)NC4=O (stereo not shown),KinomeScan,0.1 µM,reference: untreated,remaining binding,88%
